{"data": "Measured values from different studies", "cell line": "A549", "read-out": "cell growth or viability", "note": "Each line is one published result; not all experiments were run side by side."}
{"Structure (SMILES)": "Cc1cc(C)c([N+]#[C][Pd-2]([Cl])([Cl])[C]#[N+]c2c(C)cc(C)cc2C)c(C)c1", "IC50": "> 100 µM"}
{"Structure (SMILES)": "N#Cc1cccc(-c2ccc(=O)n(Cc3cccc(-c4ncc(OCC5CCN(CC(=O)NCCOCCOCCNc6ccc7c(c6)C(=O)N(C6CCC(=O)NC6=O)C7=O)CC5)cn4)c3)n2)c1 (centres unmarked)", "method": "CCK-8", "time": "72 h", "IC50": "1.15 µM"}
{"Structure (SMILES)": "C[C@H]1[C@H](C)CC[C@]2(C)CC[C@]3(C)C(=CC(=O)[C@@H]4[C@@]5(C)CC[C@@H](O)[C@](C)(C(=O)NCCNC(=O)c6ccccc6)[C@@H]5CC[C@]43C)[C@H]12", "method": "MTT", "time": "48 h", "IC50": "> 30 µM"}
{"Structure (SMILES)": "CC(C)=CCCC(C)(O)C1CCC2(C)C1C(O)CC1C3(C)CCC(OC4OC(COC(=O)CCCCCN5C(=O)C=CC5=O)C(O)C(OC(=O)CCCCCN5C(=O)C=CC5=O)C4O)C(C)(C)C3CCC12C (centres unmarked)", "method": "MTT", "IC50": "54.8 µM"}
{"Structure (SMILES)": "COc1cc([C@@H]2c3cc4c(cc3[C@H](OC(=O)CCCc3ccc(NS(=O)(=O)c5ccccc5Br)cc3)[C@H]3COC(=O)[C@H]23)OCO4)cc(OC)c1OC", "method": "CCK-8", "time": "24 h", "IC50": "14.1 µM"}
{"Structure (SMILES)": "COc1cc(N(C)CCN(C)C)c(NC(=O)/C=C/c2ccc3c(c2)OCCO3)cc1Nc1nccc(-c2cn(C)c3ccccc23)n1", "method": "MTT", "time": "72 h", "IC50": "0.207 µM"}
{"Structure (SMILES)": "CC1=C(Cn2c3ccc(Br)c(=O)c-3nc3ccccc32)CCC(C)(C)C1", "method": "CCK-8", "time": "72 h", "IC50": "0.73 µM"}
{"Structure (SMILES)": "Fc1ccc(-c2cn(CSc3ccccc3)nn2)c(F)c1", "method": "MTS", "time": "72 h", "IC50": "16.2 µM"}
{"Structure (SMILES)": "COc1ccc(/C=C2\\SC(N3N=C(c4ccc(OC)cc4)CC3c3ccc(F)cc3)=NC2=O)cc1 (centres unmarked)", "method": "MTT", "IC50": "21.7 µM"}
{"Structure (SMILES)": "CC(=O)O[C@H]1CC[C@]2(C)[C@H]3CC=C4[C@@H]5CC(C)(C)CC[C@]5(C(=O)O)CC[C@@]4(C)[C@]3(C)CC[C@H]2C1(C)C", "method": "SRB", "IC50": "42.4 µM"}
{"Structure (SMILES)": "O=C(CN1C(=O)S/C(=C\\c2ccccc2)C1=O)Nc1ccc(C(=O)Nc2ccc(F)cc2)cc1", "method": "MTT", "IC50": "19.4 µM"}
{"note": "Excerpt of the above:"}
{"Structure (SMILES)": "COc1cc(N(C)CCN(C)C)c(NC(=O)/C=C/c2ccc3c(c2)OCCO3)cc1Nc1nccc(-c2cn(C)c3ccccc23)n1", "method": "MTT", "time": "72 h", "IC50": "0.207 µM"}
